Assay results of several laboratories.
Each numbered part is a random draw from the data of one study; scales do not carry over between parts.

Set 1 — method: RNA Bind-n-Seq; molecule type: RNA; medium: in vitro; tested at: 365 nM; baseline: no-protein control; direction: higher = stronger binding; endpoint: RBNS enrichment (R)
Target: RNA binding protein fox-1 homolog 2, RRM domain, GST-SBP tag (RBFOX2, Homo sapiens, UniProt O43251-10, residues 100-194)
Notes: natural RNA segment, single round, ends assumed
Constant ends, left off below: GGGAGUUCUACAGUCCGACGAUC … UGGAAUUCUCGGGUGCCAA
Construct (chain): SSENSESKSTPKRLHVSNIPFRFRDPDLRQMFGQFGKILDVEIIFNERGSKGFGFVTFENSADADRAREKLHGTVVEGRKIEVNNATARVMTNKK
Oligonucleotide = GGAAAAGCAUUUUUCAAUAUAUUGAACUUUUGUACUGAAUUUUUUUGUAAUAAGCAAUCAAGGUUAUAAUUUUUUUUAAAAUAGAAAUUUUGUAAGAAGGCAAUAUUAAC; result = 9.33
Oligonucleotide = UGGGCCCUGGCUCCAUUAACCUAAAUGUAGCUCCUUAGCGCUAAUCUAGGAACCGCCGCUGCCUGCUGAGGGCCAGGCCCCUCACGCCCUCGCCCCAGGCCCGGGUCCUC; result = 0.488
Oligonucleotide = AUUCCACUAGUGAAAGAACCAUUUUUUAAACUUCCCUUGCCUUUUUUAUUUAUUUAAUUUUCUUGGUUUGGAGAUGUCAGUCCCAAACACCAGAGUCUGUACUUUUCUAU; result = 0.857
Oligonucleotide = CAGCGCCUUCCAGCCCUGAGCCCGCCCAGAGGAGCCCAGCGGCCCAAGAGCCCGUGCCACCCCCAGCCCUGGCCCCUCCAAUCCUCCCCGCUCUGCCGCCGCCCGCUGGG; result = 0.591
Oligonucleotide = UGCUGGCUUUAGCCCCAUGCUCAGGGUUCUCUGGGAAGUUUCAGGUUUCCAAGAUAGCACAGUGACCACAAAGGGAGAUUUUAGCAGAGCCAGCCUGCUAGAAGGCAGGA; result = 0.314

Set 2 — method: competition protein-binding microarray; molecule type: double-stranded DNA, one strand shown; medium: in vitro; tested at: 2 µM; with: Cbf1 competitor, 0.05 µM; direction: higher = stronger binding; endpoint: fluorescence intensity; constant ends, left off below: … GTCTTGATTCGCTTGACGCTGCTG
Target: Phosphate system positive regulatory protein PHO4, full length, GST-tagged (PHO4, Saccharomyces cerevisiae, UniProt P07270, residues 1-312)
Notes: whole 60-bp probe, lowest competitor level
Residues (chain): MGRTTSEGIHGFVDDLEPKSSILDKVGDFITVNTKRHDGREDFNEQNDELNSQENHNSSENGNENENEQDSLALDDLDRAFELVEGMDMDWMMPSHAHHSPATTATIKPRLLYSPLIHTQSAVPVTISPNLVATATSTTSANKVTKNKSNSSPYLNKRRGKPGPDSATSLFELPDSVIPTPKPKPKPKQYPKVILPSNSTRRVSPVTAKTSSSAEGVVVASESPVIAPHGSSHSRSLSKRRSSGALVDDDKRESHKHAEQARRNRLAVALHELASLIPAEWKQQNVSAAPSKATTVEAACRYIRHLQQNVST
Oligonucleotide = TCGCACCTTTGTGAGCACATGATTCTTTCTGCCGGT; result = 9430 a.u.
Oligonucleotide = TGGCCCTTTCACCAACACGTGCCAGTTTCCAGAAGG; result = 16900 a.u.
Oligonucleotide = AAATTACTAAGTTGTAGCGTGGGTGACGCCGTATGA; result = 7140 a.u.
Oligonucleotide = AAGGCGTCTTGTCACCACGTCTTCCAGTTATGGTCT; result = 5330 a.u.
Oligonucleotide = GTTGGCAGTCTCATCGCCGTGGGTAATCTTGAGTGG; result = 4860 a.u.

Set 3 — method: protein binding microarray; molecule type: double-stranded DNA, one strand shown; medium: in vitro; tested at: not given; baseline: not given; direction: higher = stronger binding; endpoint: E-score
Target: Histone acetyltransferase KAT6A, both winged helices, GST fusion (KAT6A, Homo sapiens, UniProt Q92794, residues 1-181)
Notes: 8-mer, flanks averaged, mean of 2 arrays, mostly near background
Target sequence (chain): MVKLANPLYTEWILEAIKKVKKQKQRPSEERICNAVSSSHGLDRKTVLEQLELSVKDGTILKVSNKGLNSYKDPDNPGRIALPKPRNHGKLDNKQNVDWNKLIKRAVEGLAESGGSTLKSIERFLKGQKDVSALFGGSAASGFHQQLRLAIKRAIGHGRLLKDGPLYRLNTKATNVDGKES
Oligonucleotide = ATTGATCC; result = 0.0453
Oligonucleotide = AGTCGAGA; result = -0.104
Oligonucleotide = AATATAGA; result = 0.0142
Oligonucleotide = GTAGGCAC; result = -0.0445
Oligonucleotide = CGTCAGAG; result = -0.0946

Mixed results
Molecule = PhoQ, residues 284 288 289 292 302 303 AGGLSV; target = PhoP, residues 12 14 15 18 19 HLGGL (Escherichia coli, UniProt P23836); test = Sort-seq, measured: YFP reporter; test system = E. coli; conditions = PhoQ-PhoP variant library, with: 10 µM Mg2+; scale = baseline: high Mg2+ state, higher = stronger signaling; endpoint = fold induction; result = 1.26
